Measured values gathered from unrelated publications.
Numbered parts are unrelated; each lists some results of a single study.
Chain of UniProt Q16620 (whole entry, looked up): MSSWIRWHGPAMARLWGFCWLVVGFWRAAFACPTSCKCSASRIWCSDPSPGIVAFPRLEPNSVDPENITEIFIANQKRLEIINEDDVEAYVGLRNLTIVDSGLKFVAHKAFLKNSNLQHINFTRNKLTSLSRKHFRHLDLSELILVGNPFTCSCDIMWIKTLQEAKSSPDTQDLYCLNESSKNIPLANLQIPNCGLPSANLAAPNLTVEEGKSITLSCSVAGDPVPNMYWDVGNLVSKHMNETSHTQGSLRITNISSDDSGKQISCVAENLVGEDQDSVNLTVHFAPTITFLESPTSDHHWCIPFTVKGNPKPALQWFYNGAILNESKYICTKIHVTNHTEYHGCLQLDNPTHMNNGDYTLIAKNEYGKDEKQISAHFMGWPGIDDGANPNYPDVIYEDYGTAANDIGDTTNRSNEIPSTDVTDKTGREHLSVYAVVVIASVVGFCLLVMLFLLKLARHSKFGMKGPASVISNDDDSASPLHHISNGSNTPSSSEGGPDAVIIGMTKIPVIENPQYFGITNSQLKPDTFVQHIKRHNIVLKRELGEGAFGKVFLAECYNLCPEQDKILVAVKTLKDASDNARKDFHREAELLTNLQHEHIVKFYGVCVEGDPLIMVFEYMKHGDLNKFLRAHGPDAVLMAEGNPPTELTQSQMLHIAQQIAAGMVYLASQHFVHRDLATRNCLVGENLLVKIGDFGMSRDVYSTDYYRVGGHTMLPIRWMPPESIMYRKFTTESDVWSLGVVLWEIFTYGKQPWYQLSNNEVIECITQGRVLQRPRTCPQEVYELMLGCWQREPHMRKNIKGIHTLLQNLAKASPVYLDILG
Chain of UniProt Q9Y4K4 (whole entry, looked up): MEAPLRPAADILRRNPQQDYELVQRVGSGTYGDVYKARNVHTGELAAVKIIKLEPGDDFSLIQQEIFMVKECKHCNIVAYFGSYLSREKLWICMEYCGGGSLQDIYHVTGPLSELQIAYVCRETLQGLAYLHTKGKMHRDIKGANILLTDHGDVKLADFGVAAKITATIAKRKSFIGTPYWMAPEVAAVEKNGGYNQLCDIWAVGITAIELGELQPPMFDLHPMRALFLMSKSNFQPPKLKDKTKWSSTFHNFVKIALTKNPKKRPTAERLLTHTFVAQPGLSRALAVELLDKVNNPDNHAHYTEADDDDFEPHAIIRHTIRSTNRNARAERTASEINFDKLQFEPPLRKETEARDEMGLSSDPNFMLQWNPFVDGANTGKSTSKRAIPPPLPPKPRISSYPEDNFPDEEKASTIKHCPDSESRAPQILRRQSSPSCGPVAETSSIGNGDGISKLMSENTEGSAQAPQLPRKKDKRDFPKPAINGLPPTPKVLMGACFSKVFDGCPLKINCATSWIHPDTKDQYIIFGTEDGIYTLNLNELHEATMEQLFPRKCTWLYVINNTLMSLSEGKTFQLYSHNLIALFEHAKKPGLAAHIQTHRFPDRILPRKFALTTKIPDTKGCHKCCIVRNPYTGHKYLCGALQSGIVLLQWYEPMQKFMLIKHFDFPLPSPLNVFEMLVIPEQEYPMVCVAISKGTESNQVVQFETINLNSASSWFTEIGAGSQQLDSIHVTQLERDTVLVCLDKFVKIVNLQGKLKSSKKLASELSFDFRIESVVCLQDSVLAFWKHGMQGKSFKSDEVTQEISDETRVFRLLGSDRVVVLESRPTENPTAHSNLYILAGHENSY
Chain of UniProt Q13976 (whole entry, looked up): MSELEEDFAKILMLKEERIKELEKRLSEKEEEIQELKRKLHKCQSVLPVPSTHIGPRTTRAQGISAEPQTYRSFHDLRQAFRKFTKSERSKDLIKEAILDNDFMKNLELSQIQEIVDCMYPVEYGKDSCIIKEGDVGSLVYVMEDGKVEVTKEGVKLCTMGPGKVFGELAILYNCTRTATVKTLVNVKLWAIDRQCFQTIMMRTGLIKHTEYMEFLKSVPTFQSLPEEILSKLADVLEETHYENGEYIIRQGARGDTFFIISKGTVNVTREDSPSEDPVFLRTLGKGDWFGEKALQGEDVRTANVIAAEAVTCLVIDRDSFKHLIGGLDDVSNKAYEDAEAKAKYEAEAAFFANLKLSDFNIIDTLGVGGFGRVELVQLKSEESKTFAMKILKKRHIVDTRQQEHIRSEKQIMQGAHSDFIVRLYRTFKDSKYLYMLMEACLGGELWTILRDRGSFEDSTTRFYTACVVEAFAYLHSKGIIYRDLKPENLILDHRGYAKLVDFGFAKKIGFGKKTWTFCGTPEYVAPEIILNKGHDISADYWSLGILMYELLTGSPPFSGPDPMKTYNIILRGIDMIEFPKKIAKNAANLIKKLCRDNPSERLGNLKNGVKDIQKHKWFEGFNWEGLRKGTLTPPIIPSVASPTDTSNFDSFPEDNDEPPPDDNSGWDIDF

Study 1
Target: PABPC1L2, full length, GST fusion (mouse, UniProt A0ABA7IW68)
Technique: RNAcompete
Molecule type: RNA
Matrix: in vitro
Tested at: 20 nM
Notes: 7-mer, probes averaged, single round
Relative to: mean of 7-mers
Reading: higher = stronger binding
Target sequence (chain): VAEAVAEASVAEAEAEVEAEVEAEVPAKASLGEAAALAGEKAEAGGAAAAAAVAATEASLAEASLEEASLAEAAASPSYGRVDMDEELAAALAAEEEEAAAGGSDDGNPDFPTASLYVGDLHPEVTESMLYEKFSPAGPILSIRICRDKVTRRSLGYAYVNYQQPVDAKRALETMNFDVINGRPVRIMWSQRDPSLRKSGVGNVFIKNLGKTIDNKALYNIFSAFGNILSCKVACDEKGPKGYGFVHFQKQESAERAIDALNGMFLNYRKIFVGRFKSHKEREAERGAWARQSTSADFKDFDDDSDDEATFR
For `GAUAUCG`, the 7-mer Z-score was -0.226.
For `GUCCCAG`, the 7-mer Z-score was -0.204.
`CAAGCGU` gave a 7-mer Z-score of -0.103.
For `GUAUAUG`, the 7-mer Z-score was -0.135.
For `AGUGUGU`, the 7-mer Z-score was -0.213.
`GGAAGUC` has a 7-mer Z-score of 0.0424.
With `CGAACCG` the 7-mer Z-score was -0.255.
With `GAUCUCG` the 7-mer Z-score was -0.269.

Study 2
Target: RNA binding protein fox-1 homolog 2, RRM domain, GST-SBP tag (RBFOX2, Homo sapiens, UniProt O43251-10, residues 100-194)
Technique: RNA Bind-n-Seq
Molecule type: RNA
Matrix: in vitro
Tested at: 365 nM
Notes: natural RNA segment, single round, ends assumed
Relative to: no-protein control
Reading: higher = stronger binding
Constant ends, left off below: GGGAGUUCUACAGUCCGACGAUC … UGGAAUUCUCGGGUGCCAA
Residues (chain): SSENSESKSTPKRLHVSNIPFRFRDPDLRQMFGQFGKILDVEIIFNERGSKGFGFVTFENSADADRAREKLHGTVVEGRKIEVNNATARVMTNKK
Under “RBNS enrichment (R)”, `AUACACUGUAAGCUUUGUUCUGGGAGUGGCUGUUAAUUGGAUGUAUAAUGUAACGUUUUAUUUCAAUUGUUUAUAUGGAUAGUCUGAGCAGGUACGGUUCUGAUUCUGAU` is recorded as 0.621.
`CAUGGGAGCCUCUUAGUGAUUGUGUCAGUAUUAUUGUGGAAGAUUGCCUUUGCUGUUGUAUGUAAAGUUUCAAAUUGCUCCUCUUGUGACUUUUCAGCCAGUACCAUUUU`: “RBNS enrichment (R)” 0.467.
Under “RBNS enrichment (R)”, `UCUUGUGCACCUGCAUCAGAAAACCAUAGGACAACAAGGUGGCUAGGCAGUUAUCACCCCUCUGCUGCCGUAUUCAUCACCCAGGCUCUCUUACAAGUUCCUUGUUAAUG` is recorded as 0.417.
Under “RBNS enrichment (R)”, `CGGACAGACGCCUUGCCCAGGGUGUGUUUGCUGAGUGUCUUGACUACCGUGACACCACGCAUGGCCAGAGCUAGCGUCCCUACUGCCUCCCGACUCCUCAGUGGAGGAGG` is recorded as 0.403.
`UACUGGGGAGGAGAGGAGGGCAAGUGAGAGGAGCCAGUGCCUCCUGAAGCCCUUGCUCCACUGCCACCAGCCCGCCUGCCCCAGUGCAGACUGGUCUUCAGGAGUCAGUA`: “RBNS enrichment (R)” 0.306.
For `UAUUGAGAGCUGCAGUAGUUUGCUUUUAGUAUUGUUGUUGCACUUGAGCAGAGACAAACCUUUAUUCAUAGUGUCUACAGGACAUAUGAAGAGUGCAAUGGCAAAACAAG`, “RBNS enrichment (R)” read 0.387.
For `UAGCUCUUACCUACUCCGCCACCAGCGUACCCACUCUGGCCAGAAGCCCUACAAAUGUCCACACUGUGGGAAGGCCUUUGGCGACAGCUCCUACCUCCUGCGACACCAGC`, “RBNS enrichment (R)” read 0.321.
`CCUUCCUGGGAUGUCAGCUCCAGCACUGCCAGCCACCCCCACUGCUCUCUUUGGGACCUGGCCGUGCUUCCUGCUCGUAUGACUACCAGGGGCCAUAUCUGUAUUAACUG`: “RBNS enrichment (R)” 0.495.

Study 3
Structure (SMILES): COc1ccc2cc(OCC3(C(=O)O)CN(C(=O)c4ccc(F)cc4)C3)ccc2c1
Observed: cell-free assay
Technique: competition with immobilised ligand
Tested at: 1 µM
It gave 100% for remaining binding (PRKG1 (Homo sapiens, UniProt Q13976)).
The remaining binding was 100% (NTRK2 (Homo sapiens, UniProt Q16620)).
It gave 86% for remaining binding (MAP4K5 (Homo sapiens, UniProt Q9Y4K4)).

Mixed results
CCOC(=O)[C@@H]1CSCC(=O)N[C@@H](CC)C(=O)N(C)[C@@H](C)C(=O)N[C@H](CC(C)C)C(=O)N2CCC[C@H]2C(=O)N(CC)CC(=O)N[C@H](CC(C)C)C(=O)N(C)[C@H](C)C(=O)N[C@@H](CC(C)C)C(=O)N1C has a logD of 1.25 (hydrocarbon/water).

A few entries again (study 2):
Under “RBNS enrichment (R)”, `AUACACUGUAAGCUUUGUUCUGGGAGUGGCUGUUAAUUGGAUGUAUAAUGUAACGUUUUAUUUCAAUUGUUUAUAUGGAUAGUCUGAGCAGGUACGGUUCUGAUUCUGAU` is recorded as 0.621.
